Results gathered from unrelated publications.
Compare with care: the assays were run in different laboratories. Several values in a cell are separate wells, animals, samples, runs or records. ± marks the error that the study gave.
U2AF2: U2AF2 148-342 (Homo sapiens, UniProt P26368)
Chain of UniProt P26368 (whole entry, looked up): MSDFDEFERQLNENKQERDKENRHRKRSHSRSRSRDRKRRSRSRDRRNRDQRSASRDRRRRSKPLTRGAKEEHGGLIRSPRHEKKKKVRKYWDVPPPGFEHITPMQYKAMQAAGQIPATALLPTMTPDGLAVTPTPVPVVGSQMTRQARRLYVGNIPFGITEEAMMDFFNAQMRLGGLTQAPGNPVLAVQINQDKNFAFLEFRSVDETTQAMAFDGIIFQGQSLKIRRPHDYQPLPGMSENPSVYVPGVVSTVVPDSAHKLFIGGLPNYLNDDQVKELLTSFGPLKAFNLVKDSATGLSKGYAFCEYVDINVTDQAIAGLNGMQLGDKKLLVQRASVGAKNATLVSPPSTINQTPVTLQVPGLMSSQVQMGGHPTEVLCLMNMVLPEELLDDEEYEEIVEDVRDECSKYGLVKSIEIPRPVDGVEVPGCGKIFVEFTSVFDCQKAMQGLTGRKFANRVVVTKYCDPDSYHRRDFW
T1: TOA1/TOA2 1-286; 1-122 (Saccharomyces cerevisiae); chain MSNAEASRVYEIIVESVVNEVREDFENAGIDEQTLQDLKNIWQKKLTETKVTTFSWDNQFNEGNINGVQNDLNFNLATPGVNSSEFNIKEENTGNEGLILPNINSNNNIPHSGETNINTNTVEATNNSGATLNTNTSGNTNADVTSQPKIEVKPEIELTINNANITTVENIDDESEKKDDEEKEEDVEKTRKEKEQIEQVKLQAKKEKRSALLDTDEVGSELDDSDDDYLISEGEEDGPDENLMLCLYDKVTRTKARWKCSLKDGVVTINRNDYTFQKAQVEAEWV; chain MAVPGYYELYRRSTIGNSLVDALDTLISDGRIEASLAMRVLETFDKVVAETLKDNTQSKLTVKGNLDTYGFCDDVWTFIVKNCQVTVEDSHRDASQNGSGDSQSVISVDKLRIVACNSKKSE
B1: general transcription factor II-I (human); sequence looked up; chain AQVAMSTLPVEDEESSESRMVVTFLMSALESMCKELAKSKAEVACIAVYETDVFVVGTERGRAFVNTRKDFQKDFVKYCVEEEEKAAEMHKMKSTTQANRMSVDAVEIETLRKTVEDYFCFCYGKALGKSTVVPVPYEKMLRDQSAVVVQGLPEGVAFKHPENYDLATLKWILENKAGISFIIKRPFLEPKKHVGGRVMVTDADRSILSPGGSCGPIKVKTEPTEDSGISLEMAAVTVKEESEDPDYYQYNIQAGPSETDDVDEKQPLSKPLQGSHHSSEGNEGTEMEVPAEDSTQHVPSETSEDPEVEVTIEDDDYSPPSKRPKANELPQPPVPEPANAGKRKVREFNFEKWNARITDLRKQVEELFERKYAQAIKAKGPVTIPYPLFQSHVEDLYVEGLPEGIPFRRPSTYGIPRLERILLAKERIRFVIKKHELLNSTREDLQLDKPASGVKEEWYARITKLRKMVDQLFCKKFAEALGSTEAKAVPYQKFEAHPNDLYVEGLPENIPFRSPSWYGIPRLEKIIQVGNRIKFVIKRPELLTHSTTEVTQPRTNTPVKEDWNVRITKLRKQVEEIFNLKFAQALGLTEAVKVPYPVFESNPEFLYVEGLPEGIPFRSPTWFGIPRLERIVRGSNKIKFVVKKPELVISYLPPGMASKINTKALQSPKRPRSPGSNSKVPEIEVTVEGPNNNNPQTSAVRTPTQTNGSNVPFKPRGREFSFEAWNAKITDLKQKVENLFNEKCGEALGLKQAVKVPFALFESFPEDFYVEGLPEGVPFRRPSTFGIPRLEKILRNKAKIKFIIKKPEMFETAIKESTSSKSPPRKINSSPNVNTTASGVEDLNIIQVTIPDDDNERLSKVEKARQLREQVNDLFSRKFGEAIGMGFPVKVPYRKITINPGCVVVDGMPPGVSFKAPSYLEISSMRRILDSAEFIKFTVIRPFPGLVINNQLVDQSESEGPVIQESAEPSQLEVPATEEIKETDGSSQIKQEPDPTW
B2: PPM1B (human); sequence looked up; chain GAFLDKPKTEKHNAHGAGNGLRYGLSSMQGWRVEMEDAHTAVVGIPHGLEDWSFFAVYDGHAGSRVANYCSTHLLEHITTNEDFRAAGKSGSALELSVENVKNGIRTGFLKIDEYMRNFSDLRNGMDRSGSTAVGVMISPKHIYFINCGDSRAVLYRNGQVCFSTQDHKPCNPREKERIQNAGGSVMIQRVNGSLAVSRALGDYDYKCVDGKGPTEQLVSPEPEVYEILRAEEDEFIILACDGIWDVMSNEELCEYVKSRLEVSDDLENVCNWVVDTCLHKGSRDNMSIVLVCFSNAPKVSDEAVKKDSELDKHLESRVEEIMEKSGEEGMPDLAHVMRILSAENIPNLPPGGGLAGKRNVIEAVYSRLNPHRESDGASDEAEESGSQGKLVEALRQMRINHRGNYRQLLEEMLTSYRLAKVEGEESPAEPAATATSSNSDAGNPVTMQESHTESESGLAELDSSNEDAGTKMSGEKI
B3: human CCT2; sequence looked up; chain ASLSLAPVNIFKAGADEERAETARLTSFIGAIAIGDLVKSTLGPKGMDKILLSSGRDASLMVTNDGATILKNIGVDNPAAKVLVDMSRVQDDEVGDGTTSVTVLAAELLREAESLIAKKIHPQTIIAGWREATKAAREALLSSAVDHGSDEVKFRQDLMNIAGTTLSSKLLTHHKDHFTKLAVEAVLRLKGSGNLEAIHIIKKLGGSLADSYLDEGFLLDKKIGVNQPKRIENAKILIANTGMDTDKIKIFGSRVRVDSTAKVAEIEHAEKEKMKEKVERILKHGINCFINRQLIYNYPEQLFGAAGVMAIEHADFAGVERLALVTGGEIASTFDHPELVKLGSCKLIEEVMIGEDKLIHFSGVALGEACTIVLRGATQQILDEAERSLHDALCVLAQTVKDSRTVYGGGCSEMLMAHAVTQLANRTPGKEAVAMESYAKALRMLPTIIADNAGYDSADLVAQLRAAHSEGNTTAGLDMREGTIGDMAILGITESFQVKRQVLLSAAEAAEVILRVDNIIKAAPRKRVPDHHPC
B4: human archaemetzincin-2; sequence looked up; chain MQIIRHSEQTLKTALISKNPVLVSQYEKLNAGEQRLMNEAFQPASDLFGPITLHSPSDWITSHPEAPQDFEQFFSDPYRKTPSPNKRSIYIQSIGSLGNTRIISEEYIKWLTGYCKAYFYGLRVKLLEPVPVSVTRCSFRVNENTHNLQIHAGDILKFLKKKKPEDAFCVVGITMIDLYPRDSWNFVFGQASLTDGVGIFSFARYGSDFYSMHYKGKVKKLKKTSSSDYSIFDNYYIPEITSVLLLRSCKTLTHEIGHIFGLRHCQWLACLMQGSNHLEEADRRPLNLCPICLHKLQCAVGFSIVERYKALVRWIDDESSDTPGATPEHSHEDNGNLPKPVEAFKEWKEWIIKCLAVLQK
Chain of UniProt P13393 (whole entry, looked up): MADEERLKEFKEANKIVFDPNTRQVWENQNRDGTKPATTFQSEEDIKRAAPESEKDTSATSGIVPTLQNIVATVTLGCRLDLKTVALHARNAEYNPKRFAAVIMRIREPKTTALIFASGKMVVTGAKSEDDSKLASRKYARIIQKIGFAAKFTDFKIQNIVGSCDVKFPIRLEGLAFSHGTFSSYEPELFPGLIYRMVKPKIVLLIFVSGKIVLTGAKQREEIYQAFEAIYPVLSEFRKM

Substance | tested on | assay | test system | setting | how to read | quantity | result
human HADHA | CYB5R4 knockout human cells | PP4 interaction, 3xFLAG-PP4C IP-MS | – | concentration not given | reference: CYB5R4 KO over parental | log2 fold change | -0.35
QDEKVKESYV | construct, MBP fusion, human SCRIB, PDZ 3-4 | surface plasmon resonance | peptide | concentration not given | higher = stronger binding | normalised SPR binding response | 32.9 normalised RU
human ME2 T76N | – | enzyme activity, activator, NADH absorbance | recombinant enzyme | range over 0 to 5 mM, pH 7.4 | reference: wild type | activation fold | 1.2
GGWVEKETYY | construct, MBP fusion, human SCRIB, PDZ 3-4 | automated holdup | peptide, crude extract | concentration not given, corrected by standard peak, unit not given | reference: biotin control resin, higher = stronger binding | binding intensity | -0.0368
B1 | CYB5R4 knockout human cells | PP4 interaction, 3xFLAG-PP4C IP-MS | – | concentration not given | reference: CYB5R4 KO over parental | log2 fold change | -0.8
epoetin alfa | UT7/EPO | microarray, measured: EGR4 (probe 207767_s_at) | – | 5 U/mL, 90 min, together with: SCF 10 nM | reference: vehicle | mRNA level | 3.5 fold
human dynamin-1-like protein | CYB5R4 knockout human cells | PP4 interaction, 3xFLAG-PP4C IP-MS | – | concentration not given | reference: CYB5R4 KO over parental | log2 fold change | -0.27
cotadutide | – | metabolomics, measured: hepatic isoleucine | ob/ob mice on AMLN diet, NASH model, liver | dose not given | – | metabolite level | 0.99 ± 0.06 scaled intensity
CCGTAGTGCGTCGCCTCCGTTGCCGGGGAAACGACTCAAGTCAATCGGTCC (dsDNA; 5'-amino-C6 primer) | T1, TOA1/TOA2 1-286; 1-122 (Saccharomyces cerevisiae) | array | double-stranded DNA, one strand shown | TFIIA alone | – | Kd | 0.0892 ± 0.0317 µM
B2 (PPM1B) | CYB5R4 knockout human cells | PP4 interaction, 3xFLAG-PP4C IP-MS | – | concentration not given | reference: CYB5R4 KO over parental | log2 fold change | -0.06
GUUCAUUCU (ssRNA) | U2AF2 | sequencing of bound RNA | RNA | motif only | – | Kd | 8.27 µM
semaglutide | – | – | Wistar rat, male, diet-induced obese | subcutaneous, last 5 days of treatment | – | caloric intake | 79.6 ± 2.8 kcal/day
milbemycin oxime | Saccharomyces cerevisiae | cell growth | Pdr5 deleted, Cdr1 overexpressed | 2^-9.966 µg/mL | – | OD600 | 0.936 and 1 and 0.982
Polymyxin B | Staphylococcus aureus | DiSC3(5) fluorescence | – | concentration not given, 63 min | higher = more depolarisation | membrane depolarisation | 677 a.u. and 567 a.u. and 502 a.u.
MTVCNASQRQAHAQATAVSL | H322 | phage binding | peptide | – | reference: targeting over control phage | selectivity ratio | 0.71 ± 0.23
Peginesatide | UT7/EPO | tyrosine phosphorylation, LC-MS/MS phosphoproteomics, trypsin, measured: STAT5A tyrosine 694 | – | 10 nM, 15 min, together with: 10 U/mL EPO | reference: vehicle | phosphorylation level | 28.2 fold
UUUUUAUAG (ssRNA) | U2AF2 | sequencing of bound RNA | RNA | motif only | – | Kd | 9.28 µM
SEKHFRETEV | construct, MBP fusion, human SCRIB, PDZ 3-4 | automated holdup | peptide, crude extract | concentration not given, uncorrected, unit not given | reference: biotin control resin, higher = stronger binding | binding intensity | 0.809
CTCAGGAATTCCTACAAAGTAATGTGGAGCTCAGTTCAAGTCAATCGGTCC (dsDNA; 5'-amino-C6 primer) | SPT15 full length assumed (Saccharomyces cerevisiae, UniProt P13393) | array | double-stranded DNA, one strand shown | TBP alone | – | Kd | 0.0425 ± 0.00345 µM
B3 (human CCT2) | PP6C (human) | co-immunoprecipitation, IP-MS | CYB5R4 knockout cells | concentration not given | reference: CYB5R4 knockout over parental | log2 fold change | -0.24
colistin | Escherichia coli | broth microdilution | clinical isolate RKI-No_514/16 | – | – | MIC | ≤ 0.5 µg/mL
B4 (human archaemetzincin-2) | CYB5R4 knockout human cells | PP4 interaction, 3xFLAG-PP4C IP-MS | – | concentration not given | reference: CYB5R4 KO over parental | log2 fold change | 0.43
PKRSFIESNV | construct, MBP fusion, human SCRIB, PDZ 3-4 | automated holdup | peptide, purified PDZ protein | concentration not given, unit not given | reference: biotin control resin, higher = stronger binding | binding intensity | 0.607

A few entries again:
Substance | tested on | assay | test system | setting | how to read | quantity | result
GUUCAUUCU (ssRNA) | U2AF2 | sequencing of bound RNA | RNA | motif only | – | Kd | 8.27 µM
semaglutide | – | – | Wistar rat, male, diet-induced obese | subcutaneous, last 5 days of treatment | – | caloric intake | 79.6 ± 2.8 kcal/day
milbemycin oxime | Saccharomyces cerevisiae | cell growth | Pdr5 deleted, Cdr1 overexpressed | 2^-9.966 µg/mL | – | OD600 | 0.936 and 1 and 0.982
Polymyxin B | Staphylococcus aureus | DiSC3(5) fluorescence | – | concentration not given, 63 min | higher = more depolarisation | membrane depolarisation | 677 a.u. and 567 a.u. and 502 a.u.
